Assay results from different studies.
Protocols differ between the studies behind these lines. Numbers after ± are the reported error. Values after ≈ are worked out from the molar mass of the structure shown.
Organism: Pseudomonas aeruginosa

For `CC(C)C[C@H](NC(=O)[C@H](CCCCN)NC(=O)[C@H](CCCCNC(=O)[C@H](CC(C)C)NC(=O)[C@H](CCCCN)NC(=O)[C@H](CCCCNC(=O)[C@H](CC(C)C)NC(=O)[C@H](CCCCN)NC(=O)[C@H](CCCCNC(=O)[C@H](CC(C)C)NC(=O)[C@@H](N)CCCCN)NC(=O)[C@H](CC(C)C)NC(=O)[C@@H](N)CCCCN)NC(=O)[C@H](CC(C)C)NC(=O)[C@H](CCCCN)NC(=O)[C@H](CCCCNC(=O)[C@H](CC(C)C)NC(=O)[C@@H](N)CCCCN)NC(=O)[C@H](CC(C)C)NC(=O)[C@@H](N)CCCCN)NC(=O)[C@H](CC(C)C)NC(=O)[C@H](CCCCN)NC(=O)[C@H](CCCCNC(=O)[C@H](CC(C)C)NC(=O)[C@H](CCCCN)NC(=O)[C@H](CCCCNC(=O)[C@H](CC(C)C)NC(=O)[C@@H](N)CCCCN)NC(=O)[C@H](CC(C)C)NC(=O)[C@@H](N)CCCCN)NC(=O)[C@H](CC(C)C)NC(=O)[C@H](CCCCN)NC(=O)[C@H](CCCCNC(=O)[C@H](CC(C)C)NC(=O)[C@@H](N)CCCCN)NC(=O)[C@H](CC(C)C)NC(=O)[C@@H](N)CCCCN)C(N)=O`, the MBIC was 4 µM (biofilm formation; PAO1; 24 h).
`CC[C@H](C)[C@H](NC(=O)[C@H](CCCCN)NC(=O)[C@H](CCCCN)NC(=O)[C@H](CC(C)C)NC(=O)[C@H](CCCCN)NC(=O)[C@H](CCC(=O)O)NC(=O)[C@H](CCCCN)NC(=O)[C@@H](NC(=O)[C@H](CCCCN)NC(=O)[C@H](CC(N)=O)NC(=O)[C@H](CCCNC(=N)N)NC(=O)[C@H](Cc1ccccc1)NC(=O)[C@H](CCCCN)NC(=O)[C@H](CCCNC(=N)N)NC(=O)[C@H](CC(C)C)NC(=O)[C@H](CCCNC(=N)N)NC(=O)[C@H](CCCCN)NC(=O)[C@H](CCCNC(=N)N)NC(=O)[C@H](CC(C)C)NC(=O)[C@@H](N)CCCNC(=N)N)[C@@H](C)CC)C(=O)NCC(=O)N[C@@H](CCC(N)=O)C(=O)N[C@@H](CCCCN)C(=O)N[C@H](C(=O)N[C@@H](CCC(N)=O)C(=O)NCC(=O)N[C@@H](Cc1ccccc1)C(=O)N[C@H](C(=O)N1CCC[C@H]1C(=O)N[C@@H](CCCCN)C(=O)N[C@@H](CC(C)C)C(=O)N[C@@H](CCC(N)=O)C(=O)N1CCC[C@H]1C(=O)N[C@@H](CO)C(=O)N[C@@H](CCCCN)C(=O)N[C@@H](CCC(N)=O)C(=O)N[C@@H](CO)C(=O)O)C(C)C)[C@@H](C)CC` gave a lethal concentration of 4.46 µM (inhibition zone; FRD1; LB agar, overnight).
For `CC(C)C[C@@H]1NC(=O)[C@H](CCCCN)NC(=O)CSC[C@@H](C(=O)N[C@@H](CCCCN)C(N)=O)NC(=O)[C@H](CCCCN)NC(=O)[C@H](CC(C)C)NC(=O)[C@H](CC(C)C)NC(=O)[C@@H]2CSCC(=O)N[C@@H](CCCCN)C(=O)N[C@@H](CC(C)C)C(=O)N[C@@H](CCCCN)C(=O)N[C@@H](CCCCNC(=O)[C@H](CCCCN)NC1=O)C(=O)N[C@@H](CCCCN)C(=O)N[C@@H](CC(C)C)C(=O)N[C@@H](CC(C)C)C(=O)N2`, “minimal biofilm inhibitory concentration” read 8 µg/mL (PAO1; 24 to 25 h).
`CC[C@H](C)[C@H](NC(=O)[C@H](CCCNC(=N)N)NC(=O)[C@@H](NC(=O)[C@H](C)NC(=O)[C@@H](NC(=O)[C@@H](NC(=O)[C@H](CC(C)C)NC(=O)[C@H](CCCNC(=N)N)NC(=O)[C@@H](N)C(C)C)[C@@H](C)CC)C(C)C)C(C)C)C(=O)N[C@@H](Cc1c[nH]c2ccccc12)C(=O)N[C@@H](CCCNC(=N)N)C(=O)N[C@@H](CCCNC(=N)N)C(N)=O` gave a survival of 27 ± 11% (PAO1, Galleria mellonella larvae; proleg injection, 20 µg per larva, 24 h post infection, 37 °C, dosed 1 h after infection).
The MIC50 of `C[C@@](O)(C(F)F)[C@H](NC(=O)c1ccc(C#CC#CC2CC2)cc1)C(=O)NO` is reported as 0.25 µg/mL (≈ 0.664 µM) (agar dilution; clinical isolates, susceptible and MDR/XDR).
`O=C1NC(=O)c2c(NCCCc3cccc(O)c3)cccc21` has a survival reduction of roughly 50 fold (PAO1; concentration not given, 18 h, with: ciprofloxacin 0.25 µg/mL; relative to: ciprofloxacin alone).
`CC[C@H](C)[C@H](NC(=O)[C@H](CCCCN)NC(=O)[C@H](CCCCN)NC(=O)[C@H](CC(C)C)NC(=O)[C@H](CCCCN)NC(=O)[C@H](CCC(=O)O)NC(=O)[C@H](CCCCN)NC(=O)[C@@H](NC(=O)[C@H](CCCCN)NC(=O)[C@H](CC(N)=O)NC(=O)[C@H](CCCNC(=N)N)NC(=O)[C@H](Cc1ccccc1)NC(=O)[C@H](CCCCN)NC(=O)[C@H](CCCNC(=N)N)NC(=O)[C@H](CC(C)C)NC(=O)[C@H](CCCNC(=N)N)NC(=O)[C@H](CCCCN)NC(=O)[C@H](CCCNC(=N)N)NC(=O)[C@H](CC(C)C)NC(=O)CN)[C@@H](C)CC)C(=O)NCC(=O)N[C@@H](CCC(N)=O)C(=O)N[C@@H](CCCCN)C(=O)N[C@H](C(=O)N[C@@H](CCC(N)=O)C(=O)NCC(=O)N[C@@H](Cc1ccccc1)C(=O)N[C@H](C(=O)N1CCC[C@H]1C(=O)N[C@@H](CCCCN)C(=O)N[C@@H](CC(C)C)C(=O)N[C@@H](C)C(=O)N1CCC[C@H]1C(=O)N[C@@H](CCCNC(=N)N)C(=O)N[C@H](C(=O)N[C@@H](CC(=O)O)C(=O)N[C@@H](Cc1ccc(O)cc1)C(=O)O)[C@@H](C)O)C(C)C)[C@@H](C)CC` gave a lethal concentration of 1.79 µM (inhibition zone method; 374, LB 0.8% agar with 154 mM NaCl; overnight, 37 °C).
For `CC[C@H](C)[C@H](NC(=O)CNC(=O)[C@H](CCSC)NC(=O)[C@H](CC(C)C)NC(=O)[C@H](CCCCN)NC(=O)[C@@H](N)CC(C)C)C(=O)N[C@H](C(=O)N[C@@H](CCCCN)C(=O)N[C@@H](CCCCN)C(=O)N[C@H](C(=O)N[C@@H](CC(C)C)C(=O)N[C@@H](CCCCN)C(=O)N[C@@H](C)C(=O)N[C@@H](CC(C)C)C(N)=O)C(C)C)C(C)C`, “fold activity increase” read 8 fold (PAO1; concentration not given; relative to: MIC of template peptide over MIC).
The lethal concentration of `CC[C@H](C)[C@H](NC(=O)[C@H](CCCCN)NC(=O)[C@H](CCCCN)NC(=O)[C@H](CC(C)C)NC(=O)[C@H](CCCCN)NC(=O)[C@H](CCC(=O)O)NC(=O)[C@H](CCCCN)NC(=O)[C@@H](NC(=O)[C@H](CCCCN)NC(=O)[C@H](CC(N)=O)NC(=O)[C@H](CCCNC(=N)N)NC(=O)[C@H](Cc1ccccc1)NC(=O)[C@H](CCCCN)NC(=O)[C@H](CCCNC(=N)N)NC(=O)[C@H](CC(C)C)NC(=O)[C@H](CCCNC(=N)N)NC(=O)[C@H](CCCCN)NC(=O)[C@H](CCCNC(=N)N)NC(=O)[C@@H](N)CC(C)C)[C@@H](C)CC)C(=O)NCC(=O)N[C@@H](CCC(N)=O)C(=O)N[C@@H](CCCCN)C(=O)N[C@H](C(=O)N[C@@H](CCC(N)=O)C(=O)NCC(=O)N[C@@H](Cc1ccccc1)C(=O)N[C@H](C(=O)N1CCC[C@H]1C(=O)N[C@@H](CCCCN)C(=O)N[C@@H](CC(C)C)C(=O)O)C(C)C)[C@@H](C)CC` is reported as 3.33 µM (inhibition zone; FRD1; LB agar, overnight).
For `CCCC(=O)NCC(=O)N[C@@H](CC(C)C)C(=O)N[C@@H](CC(C)C)C(=O)N[C@@H](CCCCN)C(=O)N[C@@H](CCCNC(=N)N)C(=O)N[C@H](C(=O)N[C@@H](CCCCN)C(=O)N[C@H](C(=O)N[C@@H](CC(C)C)C(=O)N[C@@H](CC(C)C)C(=O)NCCCC[C@H](NC(=O)[C@H](CC(C)C)NC(=O)[C@H](CC(C)C)NC(=O)[C@@H](NC(=O)[C@H](CCCCN)NC(=O)[C@@H](NC(=O)[C@H](CCCNC(=N)N)NC(=O)[C@H](CCCCN)NC(=O)[C@H](CC(C)C)NC(=O)[C@H](CC(C)C)NC(=O)CNC(=O)CCC)[C@@H](C)CC)[C@@H](C)O)C(=O)NCCCC[C@H](NC(=O)[C@H](CCCCNC(=O)[C@H](CC(C)C)NC(=O)[C@H](CC(C)C)NC(=O)[C@@H](NC(=O)[C@H](CCCCN)NC(=O)[C@@H](NC(=O)[C@H](CCCNC(=N)N)NC(=O)[C@H](CCCCN)NC(=O)[C@H](CC(C)C)NC(=O)[C@H](CC(C)C)NC(=O)CNC(=O)CCC)[C@@H](C)CC)[C@@H](C)O)NC(=O)[C@H](CC(C)C)NC(=O)[C@H](CC(C)C)NC(=O)[C@@H](NC(=O)[C@H](CCCCN)NC(=O)[C@@H](NC(=O)[C@H](CCCNC(=N)N)NC(=O)[C@H](CCCCN)NC(=O)[C@H](CC(C)C)NC(=O)[C@H](CC(C)C)NC(=O)CNC(=O)CCC)[C@@H](C)CC)[C@@H](C)O)C(N)=O)[C@@H](C)O)[C@@H](C)CC`, the FIC index was 0.25 (checkerboard; ATCC 27853; with: rifampicin).

Excerpt of the above:
`CC[C@H](C)[C@H](NC(=O)[C@H](CCCNC(=N)N)NC(=O)[C@@H](NC(=O)[C@H](C)NC(=O)[C@@H](NC(=O)[C@@H](NC(=O)[C@H](CC(C)C)NC(=O)[C@H](CCCNC(=N)N)NC(=O)[C@@H](N)C(C)C)[C@@H](C)CC)C(C)C)C(C)C)C(=O)N[C@@H](Cc1c[nH]c2ccccc12)C(=O)N[C@@H](CCCNC(=N)N)C(=O)N[C@@H](CCCNC(=N)N)C(N)=O` gave a survival of 27 ± 11% (PAO1, Galleria mellonella larvae; proleg injection, 20 µg per larva, 24 h post infection, 37 °C, dosed 1 h after infection).
